Published values collected from several papers.
Several values in a cell are separate wells, animals, samples, runs or records. ± gives the spread as reported.
UniProt P49761, sequence (whole entry, looked up): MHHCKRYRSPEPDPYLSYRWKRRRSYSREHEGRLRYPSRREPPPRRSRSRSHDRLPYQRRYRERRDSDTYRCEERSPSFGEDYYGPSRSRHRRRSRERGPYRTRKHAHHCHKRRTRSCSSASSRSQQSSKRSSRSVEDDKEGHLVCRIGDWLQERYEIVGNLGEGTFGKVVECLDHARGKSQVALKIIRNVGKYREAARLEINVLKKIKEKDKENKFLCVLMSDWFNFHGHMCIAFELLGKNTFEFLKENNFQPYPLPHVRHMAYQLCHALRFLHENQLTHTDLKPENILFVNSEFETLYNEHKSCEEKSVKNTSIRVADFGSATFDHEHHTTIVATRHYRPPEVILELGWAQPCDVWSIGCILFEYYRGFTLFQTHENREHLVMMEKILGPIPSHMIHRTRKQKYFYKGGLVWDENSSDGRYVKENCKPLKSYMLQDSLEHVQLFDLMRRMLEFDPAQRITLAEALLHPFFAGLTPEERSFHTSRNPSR
UniProt P36507, sequence (whole entry, looked up): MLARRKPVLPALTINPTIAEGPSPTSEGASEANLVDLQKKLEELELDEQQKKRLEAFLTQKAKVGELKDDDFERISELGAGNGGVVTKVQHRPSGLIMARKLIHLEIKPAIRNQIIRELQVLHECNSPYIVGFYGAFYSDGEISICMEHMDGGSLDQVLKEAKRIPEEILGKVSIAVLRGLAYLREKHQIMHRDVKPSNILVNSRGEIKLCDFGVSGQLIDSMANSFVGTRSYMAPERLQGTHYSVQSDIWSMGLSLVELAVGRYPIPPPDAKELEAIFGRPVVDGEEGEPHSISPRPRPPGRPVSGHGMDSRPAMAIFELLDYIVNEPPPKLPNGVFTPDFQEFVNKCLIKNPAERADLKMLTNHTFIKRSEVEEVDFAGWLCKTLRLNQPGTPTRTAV
UniProt P28335, sequence (whole entry, looked up): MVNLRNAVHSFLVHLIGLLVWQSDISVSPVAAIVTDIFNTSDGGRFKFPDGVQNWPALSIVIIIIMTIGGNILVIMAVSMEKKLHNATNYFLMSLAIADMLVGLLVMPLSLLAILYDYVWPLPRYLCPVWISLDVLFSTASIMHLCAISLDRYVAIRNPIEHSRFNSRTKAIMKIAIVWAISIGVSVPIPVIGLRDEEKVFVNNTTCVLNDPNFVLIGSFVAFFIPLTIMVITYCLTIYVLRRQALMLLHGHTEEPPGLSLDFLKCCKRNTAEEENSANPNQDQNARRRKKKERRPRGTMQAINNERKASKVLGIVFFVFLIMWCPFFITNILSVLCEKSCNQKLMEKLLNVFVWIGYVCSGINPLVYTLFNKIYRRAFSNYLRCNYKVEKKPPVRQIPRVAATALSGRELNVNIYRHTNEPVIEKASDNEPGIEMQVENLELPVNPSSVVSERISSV
UniProt Q92887, sequence (whole entry, looked up): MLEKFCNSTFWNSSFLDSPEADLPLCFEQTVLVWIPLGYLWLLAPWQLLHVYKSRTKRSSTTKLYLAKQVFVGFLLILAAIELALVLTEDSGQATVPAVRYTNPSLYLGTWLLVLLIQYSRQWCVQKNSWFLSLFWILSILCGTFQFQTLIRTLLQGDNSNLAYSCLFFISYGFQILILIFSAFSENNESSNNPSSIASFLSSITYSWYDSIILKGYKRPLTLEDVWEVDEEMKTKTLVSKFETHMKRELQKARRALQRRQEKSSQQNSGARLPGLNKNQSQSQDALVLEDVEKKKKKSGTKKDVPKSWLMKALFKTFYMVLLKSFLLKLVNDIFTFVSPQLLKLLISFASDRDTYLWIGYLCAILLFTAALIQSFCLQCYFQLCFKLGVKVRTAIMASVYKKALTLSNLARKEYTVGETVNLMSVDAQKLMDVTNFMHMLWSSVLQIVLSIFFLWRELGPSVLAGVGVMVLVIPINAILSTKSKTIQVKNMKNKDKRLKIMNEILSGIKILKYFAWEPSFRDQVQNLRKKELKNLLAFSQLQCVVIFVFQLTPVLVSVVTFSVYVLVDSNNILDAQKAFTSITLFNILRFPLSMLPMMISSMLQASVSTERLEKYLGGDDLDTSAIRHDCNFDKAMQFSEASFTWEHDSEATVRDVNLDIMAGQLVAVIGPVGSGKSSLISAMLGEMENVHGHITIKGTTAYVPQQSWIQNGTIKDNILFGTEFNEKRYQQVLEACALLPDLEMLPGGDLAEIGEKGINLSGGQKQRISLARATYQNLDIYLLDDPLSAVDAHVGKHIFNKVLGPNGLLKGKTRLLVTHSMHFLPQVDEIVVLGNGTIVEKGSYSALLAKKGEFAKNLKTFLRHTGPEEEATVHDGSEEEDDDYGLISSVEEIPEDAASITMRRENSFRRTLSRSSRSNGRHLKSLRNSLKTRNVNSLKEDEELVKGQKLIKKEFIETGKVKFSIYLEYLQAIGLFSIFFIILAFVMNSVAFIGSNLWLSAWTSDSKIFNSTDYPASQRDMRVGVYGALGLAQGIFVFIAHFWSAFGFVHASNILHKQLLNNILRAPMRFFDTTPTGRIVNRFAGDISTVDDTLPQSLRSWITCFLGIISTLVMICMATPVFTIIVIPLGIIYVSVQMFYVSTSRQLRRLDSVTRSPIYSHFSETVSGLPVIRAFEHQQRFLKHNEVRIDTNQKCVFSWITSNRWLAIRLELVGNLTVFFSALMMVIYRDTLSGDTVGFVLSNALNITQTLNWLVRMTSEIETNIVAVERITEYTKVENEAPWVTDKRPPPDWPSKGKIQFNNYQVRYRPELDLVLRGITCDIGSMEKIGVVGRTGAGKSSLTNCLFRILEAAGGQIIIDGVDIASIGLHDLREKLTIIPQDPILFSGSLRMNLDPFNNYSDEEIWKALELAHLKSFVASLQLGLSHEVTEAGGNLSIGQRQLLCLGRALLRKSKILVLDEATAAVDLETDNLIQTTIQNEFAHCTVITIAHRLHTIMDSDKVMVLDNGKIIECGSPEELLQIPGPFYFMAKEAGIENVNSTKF

Compound	target or system	test	system	setting	scale	quantity	value
CSCC[C@H](N)C(=O)N[C@@H](C)C(=O)N[C@@H](Cc1c[nH]c2ccccc12)C(=O)N[C@@H](Cc1c[nH]cn1)C(=O)N[C@@H](CC(=O)O)C(=O)N[C@@H](CC(=O)O)C(=O)N[C@@H](CCC(=O)O)C(=O)N[C@@H](CCC(=O)O)C(=O)N[C@@H](Cc1ccccc1)C(=O)N[C@@H](C)C(=O)N[C@@H](CCCNC(=N)N)C(=O)N[C@@H](CCCNC(=N)N)C(=O)N[C@@H](CCCNC(=N)N)C(=O)N[C@@H](CCCNC(=N)N)C(=O)NCCCCCC(=O)NCCCCC(NC(=O)CCCCCNC(=O)[C@H](CCCNC(=N)N)NC(=O)[C@H](CCCNC(=N)N)NC(=O)[C@H](CCCNC(=N)N)NC(=O)[C@H](CCCNC(=N)N)NC(=O)[C@H](C)NC(=O)[C@H](Cc1ccccc1)NC(=O)[C@H](CCC(=O)O)NC(=O)[C@H](CCC(=O)O)NC(=O)[C@H](CC(=O)O)NC(=O)[C@H](CC(=O)O)NC(=O)[C@H](Cc1c[nH]cn1)NC(=O)[C@H](Cc1c[nH]c2ccccc12)NC(=O)[C@H](C)NC(=O)[C@@H](N)CCSC)C(=O)NCCCCC(NC(=O)C(CCCCNC(=O)CCCCCNC(=O)[C@H](CCCNC(=N)N)NC(=O)[C@H](CCCNC(=N)N)NC(=O)[C@H](CCCNC(=N)N)NC(=O)[C@H](CCCNC(=N)N)NC(=O)[C@H](C)NC(=O)[C@H](Cc1ccccc1)NC(=O)[C@H](CCC(=O)O)NC(=O)[C@H](CCC(=O)O)NC(=O)[C@H](CC(=O)O)NC(=O)[C@H](CC(=O)O)NC(=O)[C@H](Cc1c[nH]cn1)NC(=O)[C@H](Cc1c[nH]c2ccccc12)NC(=O)[C@H](C)NC(=O)[C@@H](N)CCSC)NC(=O)CCCCCNC(=O)[C@H](CCCNC(=N)N)NC(=O)[C@H](CCCNC(=N)N)NC(=O)[C@H](CCCNC(=N)N)NC(=O)[C@H](CCCNC(=N)N)NC(=O)[C@H](C)NC(=O)[C@H](Cc1ccccc1)NC(=O)[C@H](CCC(=O)O)NC(=O)[C@H](CCC(=O)O)NC(=O)[C@H](CC(=O)O)NC(=O)[C@H](CC(=O)O)NC(=O)[C@H](Cc1c[nH]cn1)NC(=O)[C@H](Cc1c[nH]c2ccccc12)NC(=O)[C@H](C)NC(=O)[C@@H](N)CCSC)C(N)=O (stereo partly drawn)	–	–	C57BL/6 mouse female, thymus	dose not given, 6 h	baseline: total	mean tissue distribution	0.78%
O=C1NC2(CC2)COc2ncc(F)cc2[C@H]2COCCN2c2ccn3ncc1c3n2	–	–	Sprague-Dawley rat, male, liver	oral, 20 mg/kg/day, 4 weeks, end of treatment	–	organ-to-body weight ratio	3.56 ± 0.299%
CS(C)(=O)=Nc1ccc(-c2ccc(-c3nc4cc(O[C@@H]5CO[C@H]6[C@@H]5OC[C@H]6O)[nH]c4cc3F)cc2)cc1	HTR2C (Homo sapiens, UniProt P28335)	calcium signal, antagonist	–	10 µM	–	inhibition	5%
COC(=O)[C@H]1[C@@H](c2ccc(Cl)c(Cl)c2)C[C@@H]2CC[C@H]1N2CCOc1c2ccccc2cc2ccccc12	–	fluorometric titration	–	1 µM, 10% DMSO	–	pKa	5.4
COc1ccccc1-c1n[nH]c2nc(NC3CCN(C(=O)Cc4ccc(F)cc4F)CC3)ncc12	–	bead binding, competition bead pull-down, measured: LINJ.35.2780	Leishmania donovani axenic amastigote extract	10 µM	baseline: vehicle	relative abundance	0.98
CC(C)[C@H]1NC(=O)C[C@H]2/C=C/CCSSC[C@@H](NC1=O)C(=O)N[C@H](Cc1cccc3ccccc13)C(=O)NCC(=O)O2	MAP2K2 (Homo sapiens, UniProt P36507)	–	–	10 µM	–	inhibition	-0.277%
CCCCCCCCCCCCCCCC(=O)N[C@@H](CCC(=O)NCCOCCOCCC(=O)NCCOCCOCCC(=O)NCCCC[C@H](NC(=O)[C@H](CC(=O)O)NC(=O)[C@H](CC(C)C)NC(=O)[C@H](Cc1ccc(O)cc1)NC(=O)[C@H](CCCCN)NC(=O)[C@H](CO)NC(=O)[C@H](Cc1ccc(O)cc1)NC(=O)[C@H](CC(=O)O)NC(=O)[C@H](CO)NC(=O)[C@@H](NC(=O)[C@H](Cc1ccccc1)NC(=O)[C@@H](NC(=O)CNC(=O)[C@H](CCC(N)=O)NC(=O)[C@@H](CO)NC(=O)[C@@H](N)Cc1c[nH]cn1)[C@@H](C)O)[C@@H](C)O)C(=O)N[C@@H](CCCNC(=N)N)C(=O)N[C@@H](CCCNC(=N)N)C(=O)N[C@@H](C)C(=O)N[C@@H](CCC(N)=O)C(=O)N[C@@H](CC(=O)O)C(=O)N[C@@H](Cc1ccccc1)C(=O)N[C@H](C(=O)N[C@@H](CCC(N)=O)C(=O)N[C@@H](Cc1c[nH]c2ccccc12)C(=O)N[C@@H](CC(C)C)C(=O)N[C@@H](CC(C)C)C(=O)N[C@@H](CC(N)=O)C(=O)N[C@H](C(=O)NCC(=O)NCC(=O)N1CCC[C@H]1C(=O)N[C@@H](CO)C(=O)N[C@@H](CO)C(=O)NCC(=O)N[C@@H](C)C(=O)N1CCC[C@H]1C(=O)N1CCC[C@H]1C(=O)N1CCC[C@H]1C(=O)N[C@@H](CO)C(N)=O)[C@@H](C)O)C(C)C)C(=O)O	–	measured: ALT	rhesus monkey, male	subcutaneous, 20 µg/kg once daily, 28 days	–	serum enzyme activity	53.3 ± 32.2 U/L
Cc1nc2cccc(OCC(C)(C)C(=O)NC(C)C)c2c(N)c1C(=O)[O-].[Na+]	Escherichia coli	reverse mutation, preincubation	WP2 uvrA	0.051 mg/plate, without S9	–	revertant colonies	28 ± 5 colonies/plate
CC1(C)C(=O)N(c2ccc(C#N)c(C(F)(F)F)c2)C(=S)N1c1ccc(C(=O)O)c(F)c1	–	–	human, male, plasma	oral, 160 mg, single dose, fasting	–	AUC(0-inf)	65300 ± 17200 ng·h/mL
Cc1cc(-c2ccc3ccccc3c2)nnc1NCCN1CCN(C)CC1	ABCC2 (Homo sapiens, UniProt Q92887)	transporter uptake, inhibitor	–	10 µM	–	inhibition	0%
COc1cnc2cccc(N3CCc4c(cc(Cn5ccnc5)cc4-c4cn(C)nc4C(F)(F)F)C3=O)c2c1	–	–	CD-1 mouse	intraperitoneal, 150 mg/kg once daily, day 5, dose-escalation tolerability	baseline: day 1	body weight change	9.8%
N#[11C]c1ccc(-c2csc(NN=C3CCCC3)n2)cc1	–	–	C57BL/6 mice, male, pancreas	intravenous, 3 MBq, 5 min	–	radioactivity uptake	3.97 ± 1.1 %ID/g
CC(C)C[C@H](NC(=O)[C@H](Cc1ccc(O)cc1)NC(=O)[C@H](C)NC(=O)[C@@H](NC(=O)[C@H](CC(C)C)NC(=O)[C@H](C)NC(=O)[C@H](C)NC(=O)[C@H](CCCCN)NC(=O)CNC(=O)[C@@H](NC(=O)[C@H](Cc1c[nH]cn1)NC(=O)[C@H](CCCCN)NC(=O)CNC(=O)[C@@H](NC(=O)[C@H](Cc1c[nH]cn1)NC(=O)[C@@H](NC(=O)[C@H](C)NC(=O)[C@H](CCCCN)NC(=O)[C@H](CCCCN)NC(=O)[C@H](Cc1ccccc1)NC(=O)[C@H](Cc1c[nH]c2ccccc12)NC(=O)[C@H](CCCCN)NC(=O)CNC(=O)[C@H](Cc1c[nH]c2ccccc12)NC(=O)[C@@H](N)CCCNC(=N)N)[C@@H](C)O)C(C)C)C(C)C)[C@@H](C)O)C(N)=O	–	–	zebrafish embryos 4 hpf, E3 medium	24 h	–	chronic toxic concentration	5 µM
CN(C)[C@H]1C[C@@]23CC[C@@]4(O2)C(=CC[C@]2(C)[C@@H](c5ccc6ccncc6c5)CC[C@H]24)C=C3[C@@H](O)[C@@H]1O	CLK3 (Homo sapiens, UniProt P49761)	ATP probe labelling, inhibitor, KiNativ profiling	–	0.1 µM	–	inhibition	-6.5%
CC(=O)NCCCC[C@@H]1NC(=O)[C@H](Cc2c[nH]c3c(C)cccc23)NC(=O)[C@H]([C@@H](C)O)NC(=O)[C@H](CC(N)=O)NC(=O)[C@@H](NC(C)=O)C(C)(C)SSC(C)(C)[C@@H](C(=O)N[C@@H](Cc2ccc(OCCN)cc2)C(=O)N[C@@H](Cc2ccc3ccccc3c2)C(=O)NC2(C(=O)N[C@@H](CCC(=O)O)C(=O)N[C@@H](CC(N)=O)C(=O)N[C@@H](Cc3cccnc3)C(=O)N(C)CC(N)=O)CCOCC2)NC1=O	–	–	dog, blood	0.13 µM, 2 h	–	blood to plasma ratio	0.83 ± 0.06
C=Cc1c(C)c2cc3nc(c(CC(=O)[O-])c4[n-]c(cc5nc(cc1[n-]2)C(C)=C5CC)c(C)c4C(=O)[O-])C(CCC(=O)[O-])C3C.[Cu+2].[Na+].[Na+].[Na+] (stereo not drawn)	–	–	Wistar rat, male	oral, 1000 mg/kg daily, 28 days	–	serum ALT	58.3 ± 13.9 U/L
CN1Cc2cc(Cl)ccc2-n2c(nnc2C2CCN(c3cccc([18F])n3)CC2)C1	–	–	C57BL/6 mouse male, stomach	intravenous, dose not given, 30 min, with: blocking agent 10 mg/kg	–	tissue uptake	14.7 ± 4.77 %ID/g
N=C(N)NCCC[C@@H](NC(=O)[C@H](N)Cc1c[nH]c2ccccc12)C(=O)N[C@H](CCCCN)C(=O)N[C@H](Cc1c[nH]c2ccccc12)C(=O)N[C@H](CCCNC(=N)N)C(=O)N[C@H](CCCCN)C(=O)N[C@H](Cc1c[nH]c2ccccc12)C(=O)N[C@H](CCCNC(=N)N)C(=O)N[C@H](CCCCN)C(=O)N[C@H](Cc1c[nH]c2ccccc12)C(=O)N[C@H](CCCNC(=N)N)C(=O)N[C@H](CCCCN)C(N)=O	–	–	mouse	intraperitoneal, 20 mg/kg single dose, day 5	–	survival	100%
CC[C@H](C)[C@H](NC(=O)[C@H](CCCCN)NC(=O)CNC(=O)[C@H](CC(C)C)NC(=O)[C@H](Cc1ccccc1)NC(=O)[C@H](CCCCN)NC(=O)[C@H](CO)NC(=O)[C@H](Cc1ccccc1)NC(=O)[C@H](Cc1c[nH]c2ccccc12)NC(=O)[C@H](CCC(N)=O)NC(=O)[C@@H](NC(=O)[C@H](Cc1ccccc1)NC(=O)CCCCCNC(=O)CN1CCN(CC(=O)O)CCN(CC(=O)O)CCN(CC(=O)O)CC1)C(C)C)C(=O)N[C@@H](CCC(=O)O)C(=O)N1CCC[C@H]1C(=O)N[C@@H](CC(=O)O)C(=O)N[C@H](C(=O)N[C@@H](CO)C(=O)N[C@@H](CCC(N)=O)C(=O)N[C@H](C(=O)N[C@@H](CCC(N)=O)C(=O)N[C@@H](CC(=O)O)C(=O)N1CCC[C@H]1C(=O)N[C@@H](CC(N)=O)C(=O)N[C@@H](CC(=O)O)C(=O)N[C@@H](CCC(N)=O)C(=O)N[C@@H](Cc1ccc(O)cc1)C(=O)N[C@@H](CCC(=O)O)C(=O)N1CCC[C@H]1C(=O)N[C@@H](Cc1ccccc1)C(=O)O)C(C)C)C(C)C [copper-64 labelled]	–	–	C57BL/6 mice, blood	with: LPS 3 mg/kg intratracheal	–	tissue uptake	1.19 ± 0.2 %ID/g
CCN(CC)CCOc1ccc(-c2nnn(Cc3ccc(OC)cc3)c2N)cc1	–	–	beagle dog	oral, at least 40 mg/kg	–	pulse pressure increase	≤ 18%
O=C1NC(=O)c2c1c1cc(F)c[n+]3c1c1c2c2cc(O)ccc2[n]1[Ru-4]312([N]=C=S)[S+]3CC[S+]1CC[S+]2CC3 (stereo not drawn)	ABL1 (Homo sapiens, UniProt P00519, Q252H)	enzyme activity	–	100 nM, human enzyme, with: 10 µM ATP	baseline: untreated	remaining activity	90%
CCc1nn(C)c2nc(-c3ccc(C(=O)O)cc3)nc(NCc3ccccc3)c12	–	–	NSG mice	dose not given, day 2	–	body weight	19.8 g and 21.6 g and 22.5 g and 19.5 g
C[C@H](O)[C@@H](NC(=O)[C@H]1CCCN1C(=O)[C@@H](CCCCN)NC(=O)[C@@H](CO)NC(=O)[C@@H](Cc1ccc(O)cc1)NC(=O)[C@@H](CC(N)=O)NC(=O)CCOCCOCCOCCNC(=O)CN1CCN(CC(=O)O)CCN(CC(=O)O)CCN(CC(=O)O)CC1)C(=O)N[C@H](CC(=O)O)C(=O)N[C@H](CCCNC(=N)N)C(=O)N[C@H](CCC(N)=O)C(=O)N[C@H](Cc1ccc(O)cc1)C(=O)N[C@H](Cc1c[nH]cn1)C(=O)N[C@H](Cc1ccccc1)C(N)=O [copper-64 labelled]	–	–	C57BL/6J mice, spleen	intravenous, 1.85 MBq, 1.333 h, radiolabelled	–	tissue uptake	0.17 ± 0.03 %ID/g
CC(C)Oc1c(NC(=O)c2ccc(NC(=O)[C@H](CC(N)=O)NC(=O)c3ccc(/N=N/c4ccccc4)cc3)cc2)ccc(C(=O)N/N=C/c2ccc(C(=O)O)cc2)c1O	–	absorbance	DMSO	45 °C, PSS to ground state relaxation	–	thermal half-life	5.7 h

For quick reference, copied from above:
Compound	target or system	test	system	setting	scale	quantity	value
O=C1NC2(CC2)COc2ncc(F)cc2[C@H]2COCCN2c2ccn3ncc1c3n2	–	–	Sprague-Dawley rat, male, liver	oral, 20 mg/kg/day, 4 weeks, end of treatment	–	organ-to-body weight ratio	3.56 ± 0.299%
O=C1NC(=O)c2c1c1cc(F)c[n+]3c1c1c2c2cc(O)ccc2[n]1[Ru-4]312([N]=C=S)[S+]3CC[S+]1CC[S+]2CC3 (stereo not drawn)	ABL1 (Homo sapiens, UniProt P00519, Q252H)	enzyme activity	–	100 nM, human enzyme, with: 10 µM ATP	baseline: untreated	remaining activity	90%
